Measured values collected from several papers.
Every numbered part comes from another study and shows a few of its results, in no order. Positions count from the first letter of the parent shown.

Series 1 — technique: RNA Bind-n-Seq; form: RNA; matrix: in vitro; concentration: 365 nM; reference: no-protein control; direction: higher = stronger binding
Target: RNA binding protein fox-1 homolog 2, RRM domain, GST-SBP tag (RBFOX2, Homo sapiens, UniProt O43251-10, residues 100-194)
Setting: natural RNA segment, single round, ends assumed
All sequences stand within: GGGAGUUCUACAGUCCGACGAUC … UGGAAUUCUCGGGUGCCAA
Residues (chain): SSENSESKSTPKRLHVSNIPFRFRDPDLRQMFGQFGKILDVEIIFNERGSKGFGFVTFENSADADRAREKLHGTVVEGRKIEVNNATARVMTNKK
Oligonucleotide | RBNS enrichment (R)
CUGUAACAUGGGAAUGGAAAUGUCCCUCUCUGGGCCUGUGUUUCUUUGUGUGUCCAGUGAAGGAACAGAACUAGAAGCCCAUUCAGCAACCUGUGAGAUUCUUACACAGG | 0.4
UUCACUUUUGUAGACCUUCCCUGAAGUCCAUGGAACAGACCUAAGGGAACAACUGAGCAUCAAAACCGGCUUUGCUUUACUUCCUGGCAGGCUGCAGCCAAGGGGACUGA | 0.536
CUUUAGUAUGCCACACUGAAAUGAAUAAGAAGUCUUCUGAAACUGGGAACUUCAUAACAUUGAAGGCAGAAGAUUCUGCUAAGGAAAAAAGCAGGCAGGAAAGAAAAUGU | 0.848
UAGGGUAUAUGAAUAUUUUGCAAUAAUUUUAAUAAUUAUUAAGCUGUUUGAAGGAAAGAAUAUGGAUUUUUCAUGUCUUGAGGUUUUGUUCAUGCCCCCUUUGACUGAUC | 0.651
GCUGCCUCGUCCUGACCCACGGAAGGUGGCAGAGUGCUCCCUGCCUGGCCCCUGGCCCCUGGCCCCUUGCCUGGCUGGCUUGACAGCCUGAGCACAAGAAGCAGUAAGUU | 0.369
CAUUAUGAUUCAUAACAGUGACAAUCACAGUUAUGAGGUAGAAAGGAAAGGGAUUUUAUGGUUGGGGGUUAGUCCAACAAGAGGGACAGUGUUAAUGCUUCUGAAGCAUC | 0.483
UUGAUGGCGAGGGGAACACUGAUGAAUGAGAGGUCCACCAGCCCACUUCCAAGAAACAGUUCUGGCCCAAACCAGACUAUCCCUUCCCCAACAGUUCUCACUGCCUGGCC | 0.403
CCCUUUUUAUACUCCAUAUCUGUCUUCCAGAAACGUCACCUGCCUUUCUCCUGUGGUCUCUUAAUCCAGUAAUUGUAUUACUGCCAUUAAAGGAUGCAGUUAUUUUAAAA | 0.673
GGUCUCAUUGAAGACGACACGUACUACCCCAUAAGCUAGUAAGCCAGCAAGAAAGGCCAUGCCACCUGCCCUUGACUACACAGGAACAGUGAACAGCAUUUUCGUUCCUG | 1.5
CUCCCCCAAGGCUCCCUGCCCCUCCUCAUGCCCCUCUGUCCUCUGCGUUUUUUCUGUGUAAUCUAUUUUUUAAGAAGAGUUUGUAUUAUUUUUUCAUACGGCUGCAGCAG | 1
GAAGUUGGCUGACACAGCUUAGCUUGGUUUUGCUUAUUCAAAAGAGAAAAUAACUACACAUGGAAAUGAAACUAGCUGAAGCCUUUUCUUGUUUUAGCAACUGAAAAUUG | 0.344
GAUUCUUAAAAAGCAGUGGUUAAUUUGCUGGCUUUUCAAACCCUGCCCGCCCUGGUUUGCCUGCGGUUUAAUAUGCAAUAUUCAGCAGACAGCUGCUGGCGCUACAAUUA | 0.991

Series 2 — target: CCNB2, cyclin fold, Cln2 fusion (human); technique: yeast growth competition, sequencing; matrix: yeast; setting: strong parent motif; reference: not given; direction: higher = stronger binding
Parent: BRCA2 docking peptide (human); PSIKRNLLNEFDR; partner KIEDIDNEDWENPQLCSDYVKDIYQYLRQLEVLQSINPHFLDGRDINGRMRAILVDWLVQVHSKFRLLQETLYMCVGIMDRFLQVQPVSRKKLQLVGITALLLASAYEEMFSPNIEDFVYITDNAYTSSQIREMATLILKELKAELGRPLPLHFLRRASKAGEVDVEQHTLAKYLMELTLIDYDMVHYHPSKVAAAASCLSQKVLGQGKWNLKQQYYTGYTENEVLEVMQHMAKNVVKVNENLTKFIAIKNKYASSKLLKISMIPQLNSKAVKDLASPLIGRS
Variant | normalised enrichment score
PSIKRDLLNEFDR [N6D] | 1.74
PAIKRNLLNEFDR [S2A] | 2.86
PSIKHNLLNEFDR [R5H] | -0.0449
PSIKRNLLNEFNR [D12N] | 4.2
PEIKRNLLNEFDR [S2E] | 3.03
PSIKRNYLNEFDR [L7Y] | 0.129
PNIKRNLLNEFDR [S2N] | 3.13
PSIKRNLLNIFDR [E10I] | 0.49
PQIKRNLLNEFDR [S2Q] | 3.58

Series 3 — technique: aptamer microarray, sandwich; form: DNA with 2'F-ANA; matrix: in vitro; concentration: 200 nM; added: Cy3 exosite-II aptamer, 400 nM; direction: higher = stronger binding; oligonucleotide: GGTTGGTGTGGTTGG
Target: Prothrombin, mature alpha-thrombin (F2, Homo sapiens, UniProt P00734)
Setting: whole 15-mer aptamer, many near background
Modification | mean fluorescence intensity
2'F-ANA at 3 5 6 7 11 12 13 15 | 133 a.u.
2'F-ANA at 1 2 5 9 11 12 15 | 79.7 a.u.
2'F-ANA at 4 7 11 | 333 a.u.
2'F-ANA at 2 3 4 7 8 9 11 14 15 | 256 a.u.
2'F-ANA at 4 8 9 14 | 93.7 a.u.
2'F-ANA at 1 5 6 7 8 9 11 12 14 15 | 48.1 a.u.
2'F-ANA at 1 2 3 5 6 7 8 13 | 54.5 a.u.
2'F-ANA at 4 9 15 | 283 a.u.
2'F-ANA at 2 4 5 9 10 11 15 | 68.1 a.u.
2'F-ANA at 2 3 7 9 10 11 14 | 242 a.u.
2'F-ANA at 1 2 3 4 6 7 8 11 13 14 | 83.4 a.u.
2'F-ANA at 1 2 5 6 8 9 11 13 15 | 63.9 a.u.
2'F-ANA at 1 2 3 4 5 7 8 11 15 | 69.9 a.u.
2'F-ANA at 2 5 6 8 9 10 11 12 14 | 47.9 a.u.
2'F-ANA at 1 3 4 6 7 10 14 | 52.1 a.u.
2'F-ANA at 1 2 3 4 6 7 8 9 12 14 | 70.3 a.u.
2'F-ANA at 3 6 7 10 11 12 14 | 407 a.u.
2'F-ANA at 2 6 7 10 11 12 | 146 a.u.
2'F-ANA at 2 6 7 8 11 12 13 14 15 | 150 a.u.
2'F-ANA at 1 4 6 9 12 14 15 | 55.3 a.u.
2'F-ANA at 1 2 5 10 12 14 15 | 47.5 a.u.
2'F-ANA at 1 2 3 5 6 7 8 9 12 15 | 145 a.u.
2'F-ANA at 1 5 8 9 10 12 13 | 56.1 a.u.
2'F-ANA at 3 4 5 7 8 9 12 14 15 | 142 a.u.

Series 4 — technique: DHFR PCA, deep sequencing; matrix: yeast; added: (+)-ABA 0.11 µM; reference: wild-type fitted maximum; direction: higher = stronger binding
Target: ABI1, truncated, D143A, DHFR fusion (Arabidopsis thaliana)
Setting: methotrexate growth selection, single substitutions
Parent: PYL1, truncated, DHFR fusion (Arabidopsis thaliana); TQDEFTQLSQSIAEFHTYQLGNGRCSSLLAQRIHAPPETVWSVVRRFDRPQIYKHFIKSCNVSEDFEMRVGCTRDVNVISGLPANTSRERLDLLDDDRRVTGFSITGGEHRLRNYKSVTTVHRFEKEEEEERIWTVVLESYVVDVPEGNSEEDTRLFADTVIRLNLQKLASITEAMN; partner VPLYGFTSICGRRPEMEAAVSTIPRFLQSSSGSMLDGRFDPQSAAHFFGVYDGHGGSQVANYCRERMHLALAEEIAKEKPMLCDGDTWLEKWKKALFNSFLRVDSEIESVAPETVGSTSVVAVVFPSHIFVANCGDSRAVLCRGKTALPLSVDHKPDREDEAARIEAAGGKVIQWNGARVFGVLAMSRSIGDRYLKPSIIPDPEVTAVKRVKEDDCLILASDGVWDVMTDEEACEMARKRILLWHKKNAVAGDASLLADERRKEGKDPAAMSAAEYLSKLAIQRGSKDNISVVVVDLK
Variant | relative binding score
G81K | 0.854%
D159P | -5.72%
R46D | -5.3%
C25G | -3.17%
V121F | -3.94%
L156P | -0.895%
S171E | 54.5%

Series 5 — technique: Sort-seq; refers to: YFP reporter; matrix: E. coli; setting: PhoQ-PhoP variant library; added: 10 µM Mg2+; reference: high Mg2+ state; direction: higher = stronger signaling
Molecule: PhoQ, residues 284 288 289 292 302 303 SSLVEF
target | fold induction
PhoP, residues 12 14 15 18 19 ICWRQ (Escherichia coli, UniProt P23836) | 10.8
PhoP, residues 12 14 15 18 19 VHTVL (Escherichia coli, UniProt P23836) | 19.1
PhoP, residues 12 14 15 18 19 TQCLL (Escherichia coli, UniProt P23836) | 8.34
